Experimental data pooled from the literature.
Each line is one published result; not all experiments were run side by side. Numbers after ± are the reported error.
CXCR4: C-X-C chemokine receptor type 4 (CXCR4, Homo sapiens, UniProt P61073)
CD38: ADP-ribosyl cyclase/cyclic ADP-ribose hydrolase 1 (CD38, Homo sapiens, UniProt P28907)
T1: RNA aptamer; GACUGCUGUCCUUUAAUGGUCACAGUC
T2: tetracycline RNA aptamer A55G; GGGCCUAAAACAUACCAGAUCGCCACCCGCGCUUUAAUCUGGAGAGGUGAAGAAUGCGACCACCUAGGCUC

SMILES	target	assay	test system	conditions	how to read	quantity	result
CN1CCN(CC(=O)N2N=C3/C(=C/c4ccccc4)CCCC3C2c2ccccc2)CC1 (mixture of isomers)	Polyunsaturated fatty acid lipoxygenase ALOX15 (ALOX15, Homo sapiens, UniProt P16050)	activator	–	10 µM, with: arachidonic acid 25 µM	relative to: no activator	lag phase change	140 s
C=C[C@]12CCC(=O)C=C1CC[C@H]1[C@@H]3CC[C@H](C(C)=O)[C@@]3(C)CC[C@@H]12	Membrane progesterone receptor epsilon (Paqr9, Mus musculus, UniProt Q6TCG2)	TIRF imaging	GFP-tagged cells	100 nM, 20 min	relative to: vehicle	cell surface stability	no effect
CCCCCCCC/C=C\CCCCCCCC(=O)O[C@@H]1C=CCO[C@H]1COP(=O)(O)S (stereo partly drawn)	Lysophosphatidic acid receptor 6 (Homo sapiens, UniProt P43657)	agonist, TGFα shedding	–	–	–	Emax	13%
CNc1ccccc1C(=O)O[C@H]1C[C@H](n2cnc3c(N)ncnc32)O[C@@H]1COP(=O)(O)OP(=O)(O)O	Unconventional myosin-Va (Gallus gallus, UniProt Q02440, D297C/G292C/I296C/S293C/V295G)	stopped-flow FRET	–	4–15 °C, with: 4 mM EDTA	–	dissociation rate, slow phase	~0.5 s⁻¹
CC(=O)NCCN(CC(=O)NCCN(CC(=O)NCCN(CC(=O)NCCC(N)=O)C(=O)[C@@H](N)CCCNC(=N)N)C(=O)[C@@H](N)CCCNC(=N)N)C(=O)[C@@H](N)Cc1ccccc1	HIV-1 TAR RNA	–	–	25 °C	–	binding free energy ΔG°	-8.6 ± 0.454 kcal/mol
CC(=O)N[C@H]1[C@@H](OP(=O)(O)O)O[C@H](CO)[C@@H](O)[C@@H]1O	Uncharacterized protein (Trypanosoma brucei brucei, UniProt Q386Q8)	surface plasmon resonance	Trypanosoma brucei	concentration not given, ligand alone	–	binding	no binding
NC(=O)C1CCNC(=O)C(CCCNC(=O)c2cnccn2)NC(=O)C(CC2CCCCC2)NC(=O)C(CC2CC2)NC(=O)C=CC(=O)N1 (stereo not drawn)	Serine/threonine-protein kinase pim-1 (PIM1, Homo sapiens, UniProt P11309)	DNA-templated library selection	–	one selection round	–	enrichment factor	2.2
CC[C@H](C)[C@@H]1NC(=O)[C@H](Cc2ccc(O)cc2)NC(=O)[C@@H](N)CSSC[C@@H](C(=O)N2CCC[C@H]2C(=O)N[C@@H](CC(C)C)C(=O)NCC(N)=O)NC(=O)[C@H](CC(N)=O)NC(=O)[C@H](CCC(N)=O)NC1=O	Vasopressin V1a receptor (AVPR1A, Homo sapiens, UniProt P37288)	agonist	–	concentration not given	–	activation	93%
CCc1cc(C)nc2c(CC(=O)N(CC)CC)c(-c3ccc(OCC[18F])cc3)nn12	Translocator protein (Tspo, Rattus norvegicus, UniProt P16257)	two-tissue compartment model	rat C6 glioma model, brain	60 min dynamic PET	–	k4 rate constant	0.103 ± 0.016 min⁻¹
CCOc1ccccc1-c1nnc2n1N=C(c1ccc(NC3CCCCC3)cc1)CS2	CXCR4	β-arrestin recruitment, agonist	U2OS	–	–	Emax	10%
CC(=O)NCCN(CCC(=O)NCCN(CCC(=O)NCCN(CCC(=O)NCCC(N)=O)C(=O)[C@@H](N)CCCNC(=N)N)C(=O)[C@@H](N)CCCNC(=N)N)C(=O)[C@@H](N)Cc1ccccc1	HIV-1 TAR RNA	–	–	concentration not given	–	heat capacity change ΔCp	-2.79 ± 0.34 kJ/mol/K
CC(C)(C)OC(=O)NCCNC(=O)CCNc1ncccn1	CXCR4	arrestin recruitment, DiscoverX	–	–	–	IC50	inactive
C=C1C(=O)O[C@@H]2[C@H]3C(CO)=CC(=O)C3=C(C)C[C@H](O)[C@@H]12	Alpha-glucosidase MAL12 (MAL12, Saccharomyces cerevisiae S288c, UniProt P53341)	circular dichroism	–	65.22 µM	–	random coil content	32.9%
Cc1cc(O)cc2c1C(=O)c1c(cc3oc(=O)cc(-c4ccc(O)cc4)c3c1O)C2=O	mushroom tyrosinase	enzyme activity	–	50 µg/mL, with: L-DOPA	–	inhibition	13.2 ± 0.66%
CC[C@H](C)[C@H](NC(=O)[C@H](CCC(=O)O)NC(=O)[C@@H](N)CO)C(=O)N[C@@H](CCC(N)=O)C(=O)N[C@@H](CC(C)C)C(=O)N[C@@H](CCSC)C(=O)N[C@@H](Cc1c[nH]cn1)C(=O)N[C@@H](CC(N)=O)C(=O)N[C@@H](CC(C)C)C(=O)NCC(=O)N[C@@H](CCCCN)C(=O)N[C@@H](Cc1c[nH]cn1)C(=O)N[C@@H](CC(C)C)C(=O)N[C@@H](CC(N)=O)C(=O)N[C@@H](CO)C(=O)N[C@@H](CCSC)C(=O)N[C@@H](CCC(=O)O)C(=O)N[C@@H](CCCNC(=N)N)C(=O)N[C@H](C(=O)N[C@@H](CCC(=O)O)C(=O)N[C@@H](Cc1c[nH]c2ccccc12)C(=O)N[C@@H](CC(C)C)C(=O)N[C@@H](CCCNC(=N)N)C(=O)N[C@@H](CCCCN)C(=O)N[C@@H](CCCCN)C(=O)N[C@@H](CC(C)C)C(=O)N[C@@H](CCC(N)=O)C(=O)N[C@@H](CC(=O)O)C(=O)N[C@H](C(=O)N[C@@H](Cc1c[nH]cn1)C(=O)N[C@@H](CC(N)=O)C(=O)N[C@@H](Cc1ccccc1)C(=O)N[C@@H](CCCCNC(=O)c1ccc2c(c1)C1(OC2=O)c2ccc(N(C)C)cc2Oc2cc(N(C)C)ccc21)C(N)=O)C(C)C)C(C)C	Parathyroid hormone/parathyroid hormone-related peptide receptor (PTH1R, Homo sapiens, UniProt Q03431)	binding, NanoBRET	HEK293	–	–	koff	0.0094 ± 0.003 s⁻¹
Cc1c2c(cc3oc(=O)cc(-c4ccccc4)c13)C(=O)c1cccc(O)c1C2=O	mushroom tyrosinase	enzyme activity	–	100 µg/mL, with: L-DOPA	–	inhibition	63.86 ± 0.45%
CCCCCCCC(=O)Nc1ccc(C#N)nc1C	Liver carboxylesterase 1 (CES1, Homo sapiens, UniProt P23141)	substrate	–	50 µM, pH 8, 37 °C, enzyme purity 25%	–	specific activity	63 pmol/min/µg
CC1=NC(Nc2nc(C)c3cc(C)cc(C)c3n2)=NC(C)(C)C1	CD38	hydrolase activity, fluorometric	–	50 µM, with: ε-NAD+ substrate	relative to: untreated	remaining activity	47.9 ± 1.2%

SMILES	target	assay	test system	conditions	how to read	quantity	result
COc1cc(-c2cnc3nc2NCCCNS(=O)(=O)c2cccc(c2)N3)ccc1F	Ephrin type-A receptor 4 (EPHA4, Homo sapiens, UniProt P54764)	differential scanning fluorimetry	–	10 µM	higher = stronger binding	thermal shift ΔTm	3.6 K
NC1CCCc2c1[nH]c1ccc(Cl)cc21 (racemic)	Natural resistance-associated macrophage protein 2 (Homo sapiens, UniProt P49281)	inhibitor	HEK-293T, transfected	50 µM	–	Cd2+ uptake inhibition	no inhibition
NC[C@@H]1O[C@H](O[C@H]2[C@@H](O)[C@H](O[C@@H]3[C@@H](O)[C@H](N)C[C@H](N)[C@H]3O[C@H]3O[C@H](CN)[C@@H](O)[C@H](O)[C@H]3N)O[C@@H]2CO)[C@H](N)[C@@H](O)[C@@H]1O	T1, RNA aptamer	UV melting	–	1 µM RNA, 10 µM molecule, pH 6.8, NaCl 100 mM	–	melting temperature change	11.1 °C
CC1=CC(C)(C)N=C(Nc2nc(-c3ccccc3)c3ccccc3n2)N1	CD38	hydrolase activity, fluorometric	–	50 µM, with: ε-NAD+ substrate	relative to: untreated	remaining activity	48.5 ± 2.3%
CC(=O)NCCN(CCC(=O)NCCN(CCC(=O)NCCN(CCC(=O)NCCC(N)=O)C(=O)[C@@H](N)CCCNC(=N)N)C(=O)[C@@H](N)CCCCN)C(=O)[C@@H](N)Cc1ccccc1	HIV-1 TAR RNA	–	–	concentration not given	–	heat capacity change ΔCp	-3.07 ± 0.16 kJ/mol/K
O=C1CC[C@H](N2Cc3cc(-c4cnn5ccc(NC6CCCCC6)nc45)ccc3C2=O)C(=O)N1	Cereblon/Casein kinase I alpha (CSNK1A1/CRBN, Homo sapiens, UniProt P48729+Q96SW2)	protein level, degrader, luciferase	MOLT-4	–	–	Dmax	9%
C#CCCCC(O)/C=C/C(=O)NC1(c2ccc(-c3nc4ccn5c(=O)[nH]nc5c4cc3-c3ccccc3)cc2)CCC1 (stereo not drawn)	RAC-gamma serine/threonine-protein kinase (AKT3, Homo sapiens, UniProt Q9Y243)	covalent, in-gel fluorescence click	HEK-293T expressing Halo-AKT3	–	relative to: AKT3 over Akt2	labelling efficiency ratio	3.3 fold
N=C(N)NCCC[C@H](NC(=O)[C@H](Cc1ccccc1)NC(=O)[C@@H](N)CO)C(=O)N[C@@H](CC(N)=O)C(N)=O	Neuropeptide S receptor (NPSR1, Homo sapiens, UniProt Q6W5P4, N107I)	calcium mobilization, agonist	CHO-Galpha16	unit not given	relative to: maximal assay window	maximal response	1
COc1ccc(CNC(=O)c2sc3nc(C)cc(C)c3c2N)cc1	Muscarinic acetylcholine receptor M4 (Rattus norvegicus, UniProt P08485)	calcium mobilization, positive allosteric modulator	–	with: acetylcholine	–	log β	0.67
[3H]C([3H])([3H])c1cnccc1CN1C[C@@H](c2cc(F)c(F)c(F)c2)CC1=O	Synaptic vesicle glycoprotein 2A (SV2A, Homo sapiens, UniProt Q7L0J3)	radioligand binding	human Alzheimer disease, frontal cortex	–	relative to: P1 over P2 fraction	specific binding ratio	~3.7 fold
CO.COc1ccc2c(c1)c(CC(=O)[O-])c(C)n2C(=O)c1ccc(Cl)cc1.COc1ccc2c(c1)c(CC(=O)[O-])c(C)n2C(=O)c1ccc(Cl)cc1.O.[Co+2].c1ccc(Nc2ccccn2)nc1	calf thymus DNA	cyclic voltammetry	DMSO/buffer	Co(II)/Co(I) couple	relative to: without DNA	cathodic peak potential shift	3 mV
CCCCCC[N+](CCCCCC)(CCCCCC)CCCCCC	Potassium channel subfamily K member 2 (Kcnk2, Rattus norvegicus, UniProt Q920B6)	ion current, blocker, inside-out patch clamp	Xenopus oocytes	1 µM, with: activating pH 5.0 jump	relative to: peak current	remaining current	50%
CC(=O)NCCN(CC(=O)NCCN(CC(=O)NCCN(CC(=O)NCCC(N)=O)C(=O)C[C@@H](N)Cc1ccccc1)C(=O)C[C@@H](N)Cc1ccccc1)C(=O)C[C@@H](N)CCCNC(=N)N	HIV-1 TAR RNA	–	–	–	–	non-electrostatic TΔS°	1.72 ± 0.191 kcal/mol
O=C(O)[C@H]1O[C@@H](O[C@@H]2c3cc4ccc5cccc6c7ccccc7c(c3C=C[C@H]2O)c4c56)[C@H](O)[C@@H](O)[C@@H]1O	UDP-glucuronosyltransferase 1A9 (UGT1A9, Homo sapiens, UniProt O60656)	glucuronidation, substrate	HEK293 homogenate	–	relative to: UGT1A9 over UGT1A1	catalytic efficiency ratio	~4570 fold
CN(C)[C@@H]1C(=O)C(C(N)=O)=C(O)[C@@]2(O)C(=O)C3=C(O)c4c(O)cccc4[C@@](C)(O)[C@H]3C[C@@H]12	T2, tetracycline RNA aptamer A55G	ITC	–	pH 7.5, 25 °C, MgCl2 10 mM	–	Kd	7.19 nM
CCc1nc2cc3ccccc3cc2cc1C(=O)N[C@@H](CCCCN)C(=O)N[C@@H](C/C=C/C[C@H](NC(=O)[C@H](CCCCN)NC(=O)c1cc2cc3ccccc3cc2nc1CC)C(=O)N1CCC[C@H]1C(=O)NCCCN)C(=O)N1CCC[C@H]1C(=O)NCCCN	HIV-1 frameshift site RNA	SPR	–	–	–	residence time	347 s
CC(=O)NCCN(CC(=O)NCCN(CC(=O)NCCN(CC(=O)NCCC(N)=O)C(=O)C[C@@H](N)Cc1ccccc1)C(=O)C[C@@H](N)CCCNC(=N)N)C(=O)C[C@@H](N)CCCNC(=N)N	HIV-1 TAR RNA	–	–	25 °C	–	binding free energy ΔG°	-8.84 ± 0.598 kcal/mol
Cc1sc2nc[nH]c(=O)c2c1C	Cyclin-G-associated kinase (GAK, Homo sapiens, UniProt O14976)	weak affinity chromatography	–	–	–	ligand efficiency	0.6

For quick reference, copied from above:
SMILES	target	assay	test system	conditions	how to read	quantity	result
CCCCCCCC(=O)Nc1ccc(C#N)nc1C	Liver carboxylesterase 1 (CES1, Homo sapiens, UniProt P23141)	substrate	–	50 µM, pH 8, 37 °C, enzyme purity 25%	–	specific activity	63 pmol/min/µg
CC1=NC(Nc2nc(C)c3cc(C)cc(C)c3n2)=NC(C)(C)C1	CD38	hydrolase activity, fluorometric	–	50 µM, with: ε-NAD+ substrate	relative to: untreated	remaining activity	47.9 ± 1.2%
COc1cc(-c2cnc3nc2NCCCNS(=O)(=O)c2cccc(c2)N3)ccc1F	Ephrin type-A receptor 4 (EPHA4, Homo sapiens, UniProt P54764)	differential scanning fluorimetry	–	10 µM	higher = stronger binding	thermal shift ΔTm	3.6 K
